Measured values gathered from unrelated publications.
Compare with care: the assays were run in different laboratories. “And” joins repeats or separate records; there may be more than shown. Numbers after ± are the reported error.
Sequence of UniProt O43293 (whole entry, looked up): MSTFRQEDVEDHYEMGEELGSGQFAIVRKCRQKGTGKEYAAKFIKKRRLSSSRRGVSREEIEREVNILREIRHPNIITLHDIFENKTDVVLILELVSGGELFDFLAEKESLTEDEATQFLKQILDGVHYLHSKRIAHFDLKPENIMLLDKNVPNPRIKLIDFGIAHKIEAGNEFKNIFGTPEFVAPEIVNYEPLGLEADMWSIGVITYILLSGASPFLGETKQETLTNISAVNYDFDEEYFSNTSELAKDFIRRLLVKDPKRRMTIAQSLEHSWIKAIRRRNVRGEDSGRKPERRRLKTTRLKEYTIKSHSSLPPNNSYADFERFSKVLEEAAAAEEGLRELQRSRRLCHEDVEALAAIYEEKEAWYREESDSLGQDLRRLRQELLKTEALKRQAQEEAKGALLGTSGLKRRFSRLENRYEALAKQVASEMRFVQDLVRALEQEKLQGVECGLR

SMILES | target or system | assay | system | setting | scale | endpoint | result
Cc1ccc2c(n1)c(-c1cccc(S(C)(=O)=O)c1)c(C)n2C/C(F)=C/CN | NMDA glutamate receptor (rat) | binding, radioligand binding | rat tissue | 10 µM, Phencyclidine | – | inhibition | 0%
COc1ccccc1-c1n[nH]c2nc(N[C@H]3CC[C@H](NS(=O)(=O)CC(C)C)CC3)ncc12 | LMJF.03.0980 | bead binding competition | Leishmania donovani extract | 10 µM | baseline: vehicle | relative abundance | 1.15
CC[C@@H]1CN2CCc3c([nH]c4cccc(OC)c34)[C@@H]2C[C@@H]1/C(=C\OC)C(=O)OC | rabbit anti-mitragynine polyclonal IgG | antigen binding, competitor, competitive indirect ELISA | 10% methanol | 30 min antibody-standard, 90 min antibody-antigen incubation | – | IC50 | 1.21 µg/mL and 1 µg/mL
CN[C@H](CC(C)C)C(=O)N[C@H]1C(=O)N[C@@H](CC(N)=O)C(=O)N[C@H]2C(=O)N[C@H]3C(=O)N[C@H](C(=O)N[C@H](C(=O)O)c4cc(O)cc(O)c4-c4cc3ccc4O)[C@H](O)c3ccc(c(Cl)c3)Oc3cc2cc(c3O[C@@H]2O[C@H](CO)[C@@H](O)[C@H](O)[C@H]2O[C@H]2C[C@](C)(NCc3ccc(OCc4cn(CC(=O)N[C@H](C(=O)N[C@@H](CCN)C(=O)N[C@H]5CCNC(=O)[C@H]([C@@H](C)O)NC(=O)[C@H](CCN)NC(=O)[C@H](CCN)NC(=O)[C@H](CC(C)C)NC(=O)[C@@H](CC(C)C)NC(=O)[C@H](CCN)NC5=O)[C@@H](C)O)nn4)c(OC)c3)[C@H](O)[C@H](C)O2)Oc2ccc(cc2Cl)[C@H]1O | ciPTEC overexpressing OAT-1 | – | – | 24 h, 37 °C, serum-free medium | – | TC50 | 230 µM
O=C1NC(=O)c2c1c1cc(F)c[n+]3c1c1c2c2cc(O)ccc2[n]1[Ru-4]312([N]=C=S)[S+]3CC[S+]1CC[S+]2CC3 (stereo not shown) | Death-associated protein kinase 3 (DAPK3, Homo sapiens, UniProt O43293) | enzyme activity | – | 100 nM, human enzyme, with: 10 µM ATP | baseline: untreated | remaining activity | 1%
COCC(=O)N1CCc2cc(-c3csc(NC(=O)c4cc(OC)cc(OC)c4)n3)ccc21 | NMDA receptor phencyclidine site, rat | radioligand binding | – | 10 µM | – | inhibition | 1%
CSCC[C@H](NC(=O)CNC(=O)[C@H](CCSC)NC(=O)[C@H](CS)NC(=O)[C@@H](N)CS)C(=O)N[C@@H](CS)C(=O)NCC(=O)N[C@@H](CCCCN)C(=O)O | ERK (mouse) | Western blot | RAW264.7 | concentration not given, 6 h pretreatment, with: LPS for 30 min | – | p-ERK/ERK ratio | 0.53 ± 0.03
O=C1NC2(CC2)COc2ncc(F)cc2[C@H]2COCCN2c2ccn3ncc1c3n2 | – | – | Sprague-Dawley rat, female, uterus | oral, 2.5 mg/kg/day, 4 weeks dosing, end of recovery | – | organ-to-body weight ratio | 0.208 ± 0.082%
Cc1[nH]nc2c1N=C(c1ccccc1Cl)c1cnc(N3CCOCC3)cc1N2 | NMDA receptor phencyclidine site, rat | radioligand binding | – | 10 µM | – | inhibition | 2%
Nc1ncc(-c2cc(-c3cnn(CC(F)(F)F)c3)ncc2F)nc1C(=O)NC1CNCC(F)C1 (stereo not shown) | ABL1(T315I)-phosphorylated | KINOMEscan competition binding | – | 1 µM | baseline: DMSO control | remaining binding | 58%
CC[C@H](C)[C@@H]1NC(=O)CNC(=O)[C@H](CC(=O)O)NC(=O)[C@H](CC(=O)O)NC(=O)[C@@H]2CSSC[C@@H]3NC(=O)[C@H](Cc4c[nH]cn4)NC(=O)[C@H](CCCNC(=N)N)NC(=O)[C@H](CCCNC(=N)N)NC(=O)[C@@H](NC(=O)[C@H](CO)NC(=O)[C@@H](N)Cc4c[nH]cn4)CSSC[C@H](NC(=O)[C@H](C)NC(=O)[C@H](Cc4c[nH]c5ccccc45)NC(=O)CNC(=O)[C@H](CSSC[C@@H](C(=O)N[C@@H](CCCCN)C(=O)N4CCC[C@H]4C(=O)N[C@@H](CC(C)C)C(=O)N[C@@H](CCCNC(=N)N)C(=O)N[C@H](C(=O)O)C(C)C)NC1=O)NC(=O)[C@H](CCCNC(=N)N)NC(=O)[C@H](CCCNC(=N)N)NC(=O)[C@H](CC(N)=O)NC(=O)[C@H](CCC(=O)O)NC(=O)[C@H](Cc1c[nH]cn1)NC3=O)C(=O)N[C@@H](Cc1ccc(O)cc1)C(=O)N2 | hKv1.6 human | – | – | concentration not given | – | ion current | no effect
CS(C)(=O)=Nc1ccc(-c2ccc(-c3nc4cc(O[C@@H]5CO[C@H]6[C@@H]5OC[C@H]6O)[nH]c4cc3F)cc2)cc1 | tryptase human | enzyme activity | – | 10 µM | – | inhibition | 5%
CC[C@H](C)[C@H](NC(=O)[C@H](CCCCN)NC(=O)CNC(=O)[C@H](CC(C)C)NC(=O)[C@H](Cc1ccccc1)NC(=O)[C@H](CCCCN)NC(=O)[C@H](CO)NC(=O)[C@H](Cc1ccccc1)NC(=O)[C@H](Cc1c[nH]c2ccccc12)NC(=O)[C@H](CCC(N)=O)NC(=O)[C@@H](NC(=O)[C@H](Cc1ccccc1)NC(=O)CCCCCNC(=O)CN1CCN(CC(=O)O)CCN(CC(=O)O)CCN(CC(=O)O)CC1)C(C)C)C(=O)N[C@@H](CCC(=O)O)C(=O)N1CCC[C@H]1C(=O)N[C@@H](CC(=O)O)C(=O)N[C@H](C(=O)N[C@@H](CO)C(=O)N[C@@H](CCC(N)=O)C(=O)N[C@H](C(=O)N[C@@H](CCC(N)=O)C(=O)N[C@@H](CC(=O)O)C(=O)N1CCC[C@H]1C(=O)N[C@@H](CC(N)=O)C(=O)N[C@@H](CC(=O)O)C(=O)N[C@@H](CCC(N)=O)C(=O)N[C@@H](Cc1ccc(O)cc1)C(=O)N[C@@H](CCC(=O)O)C(=O)N1CCC[C@H]1C(=O)N[C@@H](Cc1ccccc1)C(=O)O)C(C)C)C(C)C [copper-64 labelled] | – | – | C57BL/6 mice, male, tumour-free, liver | 4 h | – | tissue uptake | 22.8 ± 1.3 %ID/g

For quick reference, copied from above:
SMILES | target or system | assay | system | setting | scale | endpoint | result
O=C1NC2(CC2)COc2ncc(F)cc2[C@H]2COCCN2c2ccn3ncc1c3n2 | – | – | Sprague-Dawley rat, female, uterus | oral, 2.5 mg/kg/day, 4 weeks dosing, end of recovery | – | organ-to-body weight ratio | 0.208 ± 0.082%
